# Results from different studies.
# Numbered parts are unrelated; each lists some results of a single study. Several values in a cell are separate wells, animals, samples, runs or records.

# Set 1
# Target: Protein kinase C beta type, isoform beta-II (PRKCB, Homo sapiens, UniProt P05771)
# Sequence of UniProt P05771 (whole entry, looked up): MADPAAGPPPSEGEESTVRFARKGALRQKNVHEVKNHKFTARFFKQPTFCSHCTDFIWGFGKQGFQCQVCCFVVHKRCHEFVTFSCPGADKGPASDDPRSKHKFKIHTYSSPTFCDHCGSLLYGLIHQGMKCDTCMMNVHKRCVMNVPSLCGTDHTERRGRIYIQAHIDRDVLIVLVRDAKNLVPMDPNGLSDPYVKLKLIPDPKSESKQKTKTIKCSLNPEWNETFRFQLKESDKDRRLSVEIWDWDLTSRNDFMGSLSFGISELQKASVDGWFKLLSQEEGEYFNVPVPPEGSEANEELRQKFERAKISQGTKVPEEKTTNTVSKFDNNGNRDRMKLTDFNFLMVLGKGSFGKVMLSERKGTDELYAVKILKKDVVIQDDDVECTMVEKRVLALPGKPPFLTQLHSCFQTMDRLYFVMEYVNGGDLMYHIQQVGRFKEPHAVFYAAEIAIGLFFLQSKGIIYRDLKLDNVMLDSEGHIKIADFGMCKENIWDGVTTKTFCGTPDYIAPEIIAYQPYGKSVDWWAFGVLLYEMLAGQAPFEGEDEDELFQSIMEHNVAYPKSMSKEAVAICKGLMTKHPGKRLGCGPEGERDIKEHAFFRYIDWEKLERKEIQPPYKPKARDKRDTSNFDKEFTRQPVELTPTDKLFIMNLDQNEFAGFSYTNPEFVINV
# Read-out: enzyme activity
# Action: inhibitor
# Tested at: 0.5 µM
# Baseline: control
SMILES,remaining activity [%]
CC(=O)O/N=C1/C(c2c(O)[nH]c3cc(Br)ccc23)=Nc2ccccc21,101
Cn1cc(/C=C2\C(=O)Nc3ccc(S(N)(=O)=O)cc32)c2ccccc21,86.7
CC(C)[C@H](CO)Nc1nc(Nc2cccc(Cl)c2)c2ncn(C(C)C)c2n1,88.6
COc1cc2ncc(-c3ccccc3)nc2cc1OC,88.8
O=C1NC(=O)/C(=C/c2ccc3nccnc3c2)S1,103
COc1cc2ncnc(Nc3ccc(OCc4ccccc4)cc3)c2cc1OC,106
CC(C)c1nn(-c2c(Cl)cccc2Cl)c2nc(Cc3ccc(OCCO)cc3)[nH]c(=O)c12,96.7
Cc1ccc(NC(=O)c2ccc(CN3CCN(C)CC3)cc2)cc1Nc1nccc(-c2cccnc2)n1,102
CS(=O)(=O)CCNCc1ccc(-c2ccc3ncnc(Nc4ccc(OCc5cccc(F)c5)c(Cl)c4)c3c2)o1,99.8
O=C(Nc1ccc(Cl)cc1)c1ccccc1NCc1ccncc1,93.3
COc1cc2ncnc(N3CCN(C(=O)Nc4ccc(Oc5ccccc5)cc4)CC3)c2cc1OC,102
O=c1cc(N2CCOCC2)oc2c1ccc1ccccc12,99.9
COc1ccc(-c2cnc3c(-c4ccsc4)cnn3c2)cc1,94.3
CCN1/C(=C/C(C)=O)Sc2ccc(OC)cc21,99.3
CCOc1cc2ncnc(Nc3cccc(Br)c3)c2cc1OCC,98.6
CN(C)CCCn1cc(C2=C(c3c[nH]c4ccccc34)C(=O)NC2=O)c2ccccc21,12.6
Cc1nc(Nc2ncc(C(=O)Nc3c(C)cccc3Cl)s2)cc(N2CCN(CCO)CC2)n1,88.9
CCC(=O)Nc1ccc2ncnc(Nc3cccc(Br)c3)c2c1,101
Cn1cnc2cc3c(Nc4cccc(Br)c4)ncnc3cc21,95.4
Nc1[nH]nc2nnc(-c3c(-c4ccccc4)nn4ccccc34)cc12,99.7
COc1ccc(Cl)cc1NC(=O)Nc1cc(C)nc2ccccc12,109
C[S+]([O-])c1ccc(-c2nc(-c3ccncc3)c(-c3ccc(F)cc3)[nH]2)cc1 (stereo not drawn),97.9

# Set 2
# SMILES: CCNC(=O)c1cc2c(N3CCOC[C@H]3C)ccnc2n1C
# Tested at: 1 µM
# Baseline: DMSO
cell line,technique,setting,viability
normal colon patient-derived organoids,CellTiter-Glo,average of five organoid lines,115%
normal colon patient-derived organoid sample D,,,128%
normal colon patient-derived organoid sample H,,,114%
normal colon patient-derived organoid sample F,,,101%
normal colon patient-derived organoid sample E,,,113%
normal colon patient-derived organoid sample G,,,118%

# Set 3
# Target: Calcium/calmodulin-dependent protein kinase type II subunit alpha (CAMK2A, Homo sapiens, UniProt Q9UQM7)
# Sequence of UniProt Q9UQM7 (whole entry, looked up): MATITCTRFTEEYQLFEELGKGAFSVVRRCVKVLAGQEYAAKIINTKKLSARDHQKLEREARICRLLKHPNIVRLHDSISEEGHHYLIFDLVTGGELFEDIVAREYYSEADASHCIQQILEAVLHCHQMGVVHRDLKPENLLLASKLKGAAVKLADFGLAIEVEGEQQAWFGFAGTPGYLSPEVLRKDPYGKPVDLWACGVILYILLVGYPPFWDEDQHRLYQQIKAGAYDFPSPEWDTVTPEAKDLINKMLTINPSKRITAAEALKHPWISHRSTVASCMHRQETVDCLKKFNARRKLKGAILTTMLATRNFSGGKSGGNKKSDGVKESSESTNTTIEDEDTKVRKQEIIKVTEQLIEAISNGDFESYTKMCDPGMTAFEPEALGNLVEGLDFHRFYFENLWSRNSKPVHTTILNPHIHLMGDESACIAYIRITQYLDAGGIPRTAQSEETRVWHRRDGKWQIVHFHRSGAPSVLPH
# Read-out: enzyme activity
# Action: inhibitor
# Tested at: 10 µM
Structure (SMILES),inhibition [%]
Cn1c(=O)c2c(ncn2CC2OCCO2)n(C)c1=O,-9
Cc1ccc(C=O)o1,10
O=C(O)[C@H]1O[C@@H](Oc2cc(O)c3c(=O)cc(-c4ccc(O)c(O)c4)oc3c2)[C@H](O)[C@@H](O)[C@@H]1O,-26
O=CNCC(=O)O,-25
COc1cc(C[C@@H](C)[C@@H](C)Cc2ccc(O)c(OC)c2)ccc1O,-12
C=C(NC(=O)C(=C)NC(=O)c1csc(C2=N[C@@H]3c4csc(n4)[C@H]4NC(=O)c5csc(n5)[C@H]([C@](C)(O)[C@@H](C)O)NC(=O)[C@H]5CSC(=N5)/C(=C/C)NC(=O)[C@H]([C@@H](C)O)NC(=O)c5csc(n5)[C@]3(CC2)NC(=O)[C@H](C)NC(=O)C(=C)NC(=O)[C@H](C)NC(=O)[C@H]([C@@H](C)CC)N[C@@H]2C=Cc3c([C@H](C)O)cc(nc3[C@H]2O)C(=O)O[C@@H]4C)n1)C(N)=O,-8
COc1cc2c(c(OC)c1OC)-c1c(cc3c(c1OC)OCO3)C[C@H](C)[C@](C)(O)C2,-10
C[C@H](O)CC(=O)O,-16
COc1cc(C(C)=O)ccc1OCCCN1CCC(c2noc3cc(F)ccc23)CC1,-4
Nc1nc2c(ncn2[C@@H]2O[C@H](COP(=O)(O)O)[C@@H](O)[C@H]2O)c(=O)[nH]1,-9
O=C(O)CC(O)(CC(=O)OCc1ccc(O[C@@H]2O[C@H](CO)[C@@H](O)[C@H](O)[C@H]2O)cc1)C(=O)OCc1ccc(O[C@@H]2O[C@H](CO)[C@@H](O)[C@H](O)[C@H]2O)cc1 (stereo partly drawn),23
CC(C)c1ccc2c(c1)CC[C@H]1[C@](C)(CN)CCC[C@]21C,-42

# Set 4
# Target: DNA polymerase theta, ATPase domain (POLQ, Homo sapiens, UniProt O75417)
# Sequence of UniProt O75417 (whole entry, unmodified, looked up): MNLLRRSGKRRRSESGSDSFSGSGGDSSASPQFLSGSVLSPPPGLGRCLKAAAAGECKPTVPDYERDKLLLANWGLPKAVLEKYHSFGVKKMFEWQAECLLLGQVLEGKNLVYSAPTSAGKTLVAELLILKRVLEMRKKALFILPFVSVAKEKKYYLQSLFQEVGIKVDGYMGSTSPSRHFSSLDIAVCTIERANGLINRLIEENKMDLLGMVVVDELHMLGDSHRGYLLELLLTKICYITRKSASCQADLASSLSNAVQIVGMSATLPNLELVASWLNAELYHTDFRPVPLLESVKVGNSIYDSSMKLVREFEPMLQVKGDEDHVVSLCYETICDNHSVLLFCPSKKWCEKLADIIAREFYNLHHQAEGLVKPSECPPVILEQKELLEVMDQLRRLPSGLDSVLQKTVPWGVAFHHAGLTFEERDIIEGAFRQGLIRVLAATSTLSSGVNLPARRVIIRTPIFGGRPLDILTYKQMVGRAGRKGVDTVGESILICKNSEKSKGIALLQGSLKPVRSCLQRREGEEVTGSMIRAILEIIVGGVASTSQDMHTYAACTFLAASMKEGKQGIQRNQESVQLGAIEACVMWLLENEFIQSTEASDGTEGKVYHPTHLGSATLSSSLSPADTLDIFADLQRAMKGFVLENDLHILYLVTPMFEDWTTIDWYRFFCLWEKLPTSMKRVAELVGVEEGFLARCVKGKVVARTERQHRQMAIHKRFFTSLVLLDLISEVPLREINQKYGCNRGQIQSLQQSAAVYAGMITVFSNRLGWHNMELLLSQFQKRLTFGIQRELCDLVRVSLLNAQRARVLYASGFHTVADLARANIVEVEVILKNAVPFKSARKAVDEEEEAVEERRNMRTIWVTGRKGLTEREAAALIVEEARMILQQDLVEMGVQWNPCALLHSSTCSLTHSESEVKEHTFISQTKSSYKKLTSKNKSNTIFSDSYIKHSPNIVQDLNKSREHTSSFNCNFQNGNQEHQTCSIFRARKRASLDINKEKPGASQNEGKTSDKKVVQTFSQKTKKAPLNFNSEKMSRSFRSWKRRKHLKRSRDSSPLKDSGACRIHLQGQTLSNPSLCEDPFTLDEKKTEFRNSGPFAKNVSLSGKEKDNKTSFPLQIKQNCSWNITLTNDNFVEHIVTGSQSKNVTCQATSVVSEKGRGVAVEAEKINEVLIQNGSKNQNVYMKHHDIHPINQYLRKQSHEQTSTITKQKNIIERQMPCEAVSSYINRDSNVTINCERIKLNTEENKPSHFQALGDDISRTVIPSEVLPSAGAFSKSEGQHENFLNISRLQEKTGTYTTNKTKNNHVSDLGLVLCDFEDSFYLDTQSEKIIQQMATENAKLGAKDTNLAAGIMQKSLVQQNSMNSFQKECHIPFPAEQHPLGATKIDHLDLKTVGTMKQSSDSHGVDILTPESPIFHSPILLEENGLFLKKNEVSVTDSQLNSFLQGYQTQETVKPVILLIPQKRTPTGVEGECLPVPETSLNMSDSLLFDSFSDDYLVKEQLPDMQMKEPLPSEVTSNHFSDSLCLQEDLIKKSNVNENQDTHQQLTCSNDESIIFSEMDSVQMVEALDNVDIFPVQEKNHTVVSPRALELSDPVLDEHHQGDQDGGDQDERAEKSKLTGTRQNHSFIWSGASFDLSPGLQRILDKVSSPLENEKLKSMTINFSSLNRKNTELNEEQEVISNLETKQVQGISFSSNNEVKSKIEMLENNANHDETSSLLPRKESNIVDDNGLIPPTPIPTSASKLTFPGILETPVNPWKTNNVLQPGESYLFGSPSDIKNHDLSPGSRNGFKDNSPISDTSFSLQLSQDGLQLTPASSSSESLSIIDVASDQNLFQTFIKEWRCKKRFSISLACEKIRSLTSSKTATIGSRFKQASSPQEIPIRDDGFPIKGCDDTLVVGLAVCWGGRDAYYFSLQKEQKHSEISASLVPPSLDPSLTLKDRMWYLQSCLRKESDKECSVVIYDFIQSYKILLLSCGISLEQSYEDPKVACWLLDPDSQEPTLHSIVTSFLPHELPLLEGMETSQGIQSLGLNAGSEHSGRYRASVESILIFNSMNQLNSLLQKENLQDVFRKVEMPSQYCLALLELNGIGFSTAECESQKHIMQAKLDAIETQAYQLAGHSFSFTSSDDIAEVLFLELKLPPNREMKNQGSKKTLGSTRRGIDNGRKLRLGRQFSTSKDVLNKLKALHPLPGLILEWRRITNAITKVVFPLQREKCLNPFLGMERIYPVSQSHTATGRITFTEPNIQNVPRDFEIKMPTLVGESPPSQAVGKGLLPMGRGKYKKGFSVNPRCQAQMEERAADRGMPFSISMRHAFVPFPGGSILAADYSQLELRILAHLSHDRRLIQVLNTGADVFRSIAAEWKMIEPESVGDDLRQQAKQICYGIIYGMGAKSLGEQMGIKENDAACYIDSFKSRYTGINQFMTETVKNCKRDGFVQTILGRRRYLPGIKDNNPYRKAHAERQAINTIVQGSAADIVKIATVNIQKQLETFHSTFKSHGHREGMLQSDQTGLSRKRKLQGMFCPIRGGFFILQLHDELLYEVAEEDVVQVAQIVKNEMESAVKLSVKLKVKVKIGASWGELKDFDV
# Read-out: enzyme activity
# Action: inhibitor
# Tested at: 77 µM
# Baseline: untreated
Compound,remaining activity
CC[C@H]1OC(=O)[C@H](C)[C@@H](O[C@H]2C[C@@](C)(OC)[C@@H](O)[C@H](C)O2)[C@H](C)[C@@H](O[C@@H]2O[C@H](C)C[C@H](NC)[C@H]2O)[C@](C)(O)C[C@@H](C)CN(C)[C@H](C)[C@@H](O)[C@]1(C)O,101%
Cn1cnc2c1c(=O)[nH]c(=O)n2C,93.4%
CC[C@H](NC(=O)[C@H](C)NC)C(=O)N1C[C@@H](O)C[C@H]1Cc1c(-c2[nH]c3cc(F)ccc3c2C[C@@H]2C[C@H](O)CN2C(=O)[C@H](CC)NC(=O)[C@H](C)NC)[nH]c2cc(F)ccc12,79.3%
CC(=O)c1ccc(N2CCOCC2)cc1O,104%
CC(=O)[C@H]1CC[C@H]2[C@@H]3CCC4=CC(=O)CC[C@]4(C)[C@H]3CC[C@]12C,102% and 97.1%
Cc1cccc(Nc2cc(Cl)nc(SCC(=O)O)n2)c1C,86.8%
CC(C)NNC(=O)c1ccncc1,92.8% and 109%
CCOC(=O)[C@H](CCc1ccccc1)N[C@@H](C)C(=O)N1C(=O)N(C)C[C@H]1C(=O)O,102%
C=CCN1CCc2c(cc(O)c(O)c2Cl)C(c2ccccc2)C1 (stereo not drawn),94.4%
CNC(=O)[C@H](Cc1ccccc1)NC(=O)[C@H](CC(C)C)[C@H](CSc1cccs1)C(=O)NO,98.6%
CC(C)(C)NC[C@@H](O)COc1cccc2c1CCCC2=O,104%

# Repeated from above (set 1):
SMILES,remaining activity [%]
COc1cc2ncnc(Nc3ccc(OCc4ccccc4)cc3)c2cc1OC,106
CC(C)c1nn(-c2c(Cl)cccc2Cl)c2nc(Cc3ccc(OCCO)cc3)[nH]c(=O)c12,96.7
Cc1ccc(NC(=O)c2ccc(CN3CCN(C)CC3)cc2)cc1Nc1nccc(-c2cccnc2)n1,102
CS(=O)(=O)CCNCc1ccc(-c2ccc3ncnc(Nc4ccc(OCc5cccc(F)c5)c(Cl)c4)c3c2)o1,99.8
